Results pooled from the literature.
Each numbered part is a random draw from the data of one study; scales do not carry over between parts. Changes are numbered by the printed parent chain.

Series 1
Target: RNA binding protein fox-1 homolog 2, RRM domain, GST-SBP tag (RBFOX2, Homo sapiens, UniProt O43251-10, residues 100-194)
Method: RNA Bind-n-Seq
Molecule type: RNA
Medium: in vitro
Tested at: 365 nM
Notes: natural RNA segment, single round, ends assumed
Relative to: no-protein control
Direction: higher = stronger binding
Measurement: RBNS enrichment (R)
All sequences stand within: GGGAGUUCUACAGUCCGACGAUC … UGGAAUUCUCGGGUGCCAA
UUCUGUCAAGUGUUGGUAGAAUGGGCUGAAAAGACAGGUACUUGCACCGAAAGAGCUCUUCUUUUCCCCUUAGAUGUACAGUAGGAGAGGUUGUUAAGUGUUCUCUCUUU: 0.555
AUGCCUGUAUGCCUUUUUCUGGUCCAAUUGUAAAUAAAAUGCCAUUGUCCUGUUGUCUCAACUCGAAUGCAAGGGUGCGGAUUGAAGUGUGAUGGUUUCACCAGGUGGGU: 3.87
UUACAAUCCCAUCCUAUGGCCUGCAGCCAGGCUGACAGCCUCUCCCCGAACCAUGCAUCCAAGUGCAGGCUGGGCUGCGGAUCCUUUUUGGGACCUCGAGGGGACAGCAA: 0.405
UUUUUUAUACUAAAAAUGUAGAAUAAAGACUAUUUUGAAGAUUUGAAUAAAGUGAUGAAGUUGCAUUACACCUCACGCCAGCAUUCUUUACUUAGCAUGUGCUCAGAUGG: 3.28
UUGUGCUUCUUCACUUACCCAUUAGCCAGGUUCUCAUUAGGUUUUGCUUGGGCCUCCCUGGCACUGAACCUUAGGCUUUGUAUGACAGUGAAGCAGCACUGUGAGUGGUU: 0.662
AGCACACUAUAACAUCUGCUGGAGUGUUGCUGUUGCACCAUACUUUCUUGUACAUUUGUGUCUCCCUUCCCAACUAGACUGUAAGUGCCUUGCGGUCAGGGACUGAAUCU: 0.366
UUUAAAGGAAUAAAGCAAACCAGUGCUAAGAAUUUUUUUUUUAAAGCUAGCUACAUUGCAGCAGAGUUGUUGUGUAUGUGUGCAUUUAAAGAAGAUAAUGCUUAUUCUGU: 0.517
UUUUGAAGCUACUAAUUUUAUGUCGAGCUUUAAAGUCCAUAAUUGUUAUCUUCAGAAAAUAUUAUUUGACCUACAGUAUGUCCAAAUCAAUUUAAUAAAAUCGCUUUAUA: 1.28
AUGCGGAUGAUUUAUGAGAAUAGAGGGGCAGAGUUUGUGAAGUCUAGGGUUUUUUGUCCAGUGGGUUUCAAAUUUGUUGGCUGUUUAAAGACCCUGUCUCCUCCCCCACC: 0.368
GAAAGAUAAAGGCUUGUGAACAAAGAAAGCUAAGCUGUUGUACAUAUUGUAGUUGGCUGUGCAUGGUACAAAUUUAUUAAUAUGAAGAAAUGCAAAAUGUAUUGCUUUUG: 3.86
AAGCUAGCCUUGAAUAAUUCUUCUCUCGUCUUCCUGAAACACUAUUAUGCUUGUUGUACCUUUAAAGUAUGCCUUAUGUACAUUCCUUUCUCCUUUUCCUGCCUCCUCCC: 1.6
UGUUUUGAUUCUUUGUUGUUGUUUUUAUUUUAAAAGGCACAAACUCUAGAUAUUAGUUGAAUGUUGAGGCUUUAACUUUUUCGGUGUCUUUCUACAACUGUGUUCUGUGA: 0.588

Series 2
Target: ABI1, truncated, D143A, DHFR fusion (Arabidopsis thaliana)
Method: DHFR PCA, deep sequencing
Medium: yeast
Notes: methotrexate growth selection, single substitutions
Added: (+)-ABA 0.032 µM
Relative to: wild-type fitted maximum
Direction: higher = stronger binding
Measurement: relative binding score
Parent: PYL1, truncated, DHFR fusion (Arabidopsis thaliana); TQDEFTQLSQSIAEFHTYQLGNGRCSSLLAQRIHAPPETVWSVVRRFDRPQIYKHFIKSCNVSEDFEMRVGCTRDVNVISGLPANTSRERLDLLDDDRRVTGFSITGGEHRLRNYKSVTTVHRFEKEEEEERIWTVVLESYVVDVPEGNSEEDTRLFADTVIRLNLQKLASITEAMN
D95H: 2.74%
P50C: -0.594%
S27N: 35.9%
R99C: 9.18%
D95F: -5.21%
L112E: 1.93%
V121L: -1.64%
E151C: 19%
H110A: 41.5%
D65L: 4.25%
E128A: 35.7%
I79A: 15.6%
F103P: -2.5%
L8N: -14.1%

Series 3
Target: Histone acetyltransferase KAT6A, both winged helices, GST fusion (KAT6A, Homo sapiens, UniProt Q92794, residues 1-181)
Method: protein binding microarray
Molecule type: double-stranded DNA, one strand shown
Medium: in vitro
Tested at: not given
Notes: 8-mer, flanks averaged, mean of 2 arrays, mostly near background
Relative to: not given
Direction: higher = stronger binding
Measurement: E-score
Construct (chain): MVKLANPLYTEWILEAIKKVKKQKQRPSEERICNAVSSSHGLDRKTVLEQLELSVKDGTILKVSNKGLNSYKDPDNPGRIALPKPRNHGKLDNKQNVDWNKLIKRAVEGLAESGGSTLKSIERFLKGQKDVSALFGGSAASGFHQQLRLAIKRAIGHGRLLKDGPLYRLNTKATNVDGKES
ACGAACCC: 0.142
GTTCAGTA: -0.0302
GGGGAAAA: -0.149
CGTGCGAC: 0.185
ATCCTTTA: -0.167
ATTCATGA: 0.0445
CGTGTGCA: -0.0126
ACTACGTC: -0.0389
AAACCGTG: 0.0584
GCTTTGTA: -0.0385
ACGGAAGA: 0.264
ACATTGGT: -0.215
AAACCTGT: -0.153
AGCGACCC: 0.0956
CGCCCCCC: 0.0322
AATTGGCT: -0.139
AATTAAAC: -0.0859
CACGGTTC: -0.0837
CCGAACGG: 0.256
TACTAACA: -0.138
CTGGGGGC: -0.165
CGAGTATC: 0.0317
ACAAAGTA: -0.209
GTAAATTA: -0.0193
CATCAGTA: -0.157

Series 4
Target: CCNE2, cyclin fold, Cln2 fusion (human)
Method: yeast growth competition, sequencing
Medium: yeast
Notes: strong parent motif
Relative to: not given
Direction: higher = stronger binding
Measurement: normalised enrichment score
Parent: CDKN1A docking peptide (human); SKACRRLFGPVDS
R5E: -0.107
L7V: 0.857
K2F: 2.34
V11E: 5.16
R6Y: 1.08
A3V: 4.91
D12P: 3.98
V11H: 3.96
L7H: 0.0736
P10N: 4.03
R6A: 1.17

Series 5
Target: JUNB, bZIP domain (human)
Method: DHFR protein complementation
Medium: yeast
Notes: single substitutions, most at no-binding floor
Relative to: wild-type JUN-FOS pair
Direction: higher = stronger binding
Measurement: binding fitness
Parent: JUN, bZIP domain (human); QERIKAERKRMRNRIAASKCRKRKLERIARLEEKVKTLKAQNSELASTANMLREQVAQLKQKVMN; partner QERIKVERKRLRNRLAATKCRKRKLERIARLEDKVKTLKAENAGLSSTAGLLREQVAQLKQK
E54T: -1.32 natural log
Q55V: -1.48 natural log
K39A: -1.32 natural log
L59W: -1.08 natural log
K39T: -0.92 natural log
E32P: -1.51 natural log
R30D: -1.02 natural log
I28R: -1.4 natural log
A29N: -1.34 natural log
E44D: -1.35 natural log
R30V: -0.99 natural log
K36G: -1.34 natural log
L38P: -1.51 natural log
L31T: -1.57 natural log
A46G: -1.42 natural log
E32T: -1.29 natural log
A40E: -1.13 natural log
A40T: -1.18 natural log
K34D: -1.14 natural log
T48Y: -1.34 natural log
Q55H: -1.38 natural log
N42A: -1.44 natural log
S43T: -1 natural log
E33F: -1.29 natural log
A57G: -1.33 natural log

Series 6
Target: Interferon regulatory factor 7, full length, phosphomimetic (IRF7, Homo sapiens, UniProt Q92985, residues 1-503, S101K/S471D/S472D/S475D/S476D/S477D/S483D/S484D/S487D)
Chain of UniProt Q92985 (whole entry, unmodified, looked up): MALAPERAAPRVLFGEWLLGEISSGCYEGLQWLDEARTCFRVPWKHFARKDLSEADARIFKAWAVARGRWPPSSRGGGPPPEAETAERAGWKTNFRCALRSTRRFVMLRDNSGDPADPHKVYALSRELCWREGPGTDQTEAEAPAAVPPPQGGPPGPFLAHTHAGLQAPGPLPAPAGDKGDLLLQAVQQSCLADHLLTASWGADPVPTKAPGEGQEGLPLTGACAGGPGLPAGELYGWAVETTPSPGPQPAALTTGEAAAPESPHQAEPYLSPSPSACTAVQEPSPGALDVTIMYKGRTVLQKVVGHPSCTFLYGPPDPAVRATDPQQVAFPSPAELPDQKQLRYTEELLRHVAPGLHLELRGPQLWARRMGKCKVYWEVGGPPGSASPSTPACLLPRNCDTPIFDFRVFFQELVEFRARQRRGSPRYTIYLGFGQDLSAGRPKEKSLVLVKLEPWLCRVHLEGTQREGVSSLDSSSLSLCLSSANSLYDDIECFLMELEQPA
Method: protein-binding microarray
Molecule type: double-stranded DNA, one strand shown
Medium: in vitro
Tested at: 250 nM
Notes: 60-bp whole probe
Added: salmon DNA 0.4 mg/ml
Relative to: random background probes
Direction: higher = stronger binding
Measurement: log fluorescence
All sequences stand within: GCCTAGCAC … GTCTTGATTCGCTTGACGCTGCTG
TTGCCTTTTGCTTTACTGATGTGCTAG: 0.889 z-score
AACGATTTCGGGTTTCGAGACGTGCTA: 4.6 z-score
GACGGACTGTACACTGGGGACGTGCTA: -0.597 z-score
TCAGATATGCCAAATCTGACTGTGCTA: -0.224 z-score
GTCGGTTTCCTTTCCCTGACGTGCTAG: 6.29 z-score
TTAGGTCTCTTTCTCCTTTAGTGCTAG: 1.61 z-score
TATTTTTTTCTAATTGAAATGTGCTAG: 2.21 z-score
GACGATTTCGGGTATCAAGACGTGCTA: 0.686 z-score
CCATCTCTCAAAAGTCACCCTGTGCTA: 0.372 z-score
GACGAACTGAGACTGGAGGCGTGCTAG: -0.278 z-score
TTAGGTTTCGGGACTGGGTAAGTGCTA: 3.97 z-score
GACGATATCAGACTGGACACGTGCTAG: -0.0787 z-score
GTCGGACTGCTTATCCTGACGTGCTAG: -0.0731 z-score
TTAGGTTTCGGGTATCAGTTAGTGCTA: 7.32 z-score
GACGGTATTGACTTTCGGGACGTGCTA: -0.116 z-score
TTAGAACTGAGTTTCGATTCGTGCTAG: 12 z-score
TTAGGACTGGACTATCGGGTAGTGCTA: -0.351 z-score
GTAGATCTCAGTTTCGATTAGTGCTAG: 8.03 z-score
GACGATTTCGGTATCGGGACGTGCTAG: 1.6 z-score
TCATTAATGCTTCTGGAACTGTGCTAG: 0.339 z-score

Excerpt of the above (series 2):
D95H: 2.74%
P50C: -0.594%
S27N: 35.9%
R99C: 9.18%
D95F: -5.21%
L112E: 1.93%
V121L: -1.64%
E151C: 19%
H110A: 41.5%
D65L: 4.25%
E128A: 35.7%
I79A: 15.6%
F103P: -2.5%
L8N: -14.1%
